Experimental data collected from several papers.
Parts stem from different laboratories: compare values within a part only.

Set 1
Target: RNA binding protein fox-1 homolog 2, RRM domain, GST-SBP tag (RBFOX2, Homo sapiens, UniProt O43251-10, residues 100-194)
Technique: RNA Bind-n-Seq
Molecule type: RNA
Medium: in vitro
Tested at: 365 nM
Notes: natural RNA segment, single round, ends assumed
Reference: no-protein control
Reading: higher = stronger binding
All sequences stand within: GGGAGUUCUACAGUCCGACGAUC … UGGAAUUCUCGGGUGCCAA
Target sequence (chain): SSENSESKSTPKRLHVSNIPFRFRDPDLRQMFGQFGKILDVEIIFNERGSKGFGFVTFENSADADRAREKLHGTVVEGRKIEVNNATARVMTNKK
Strand | RBNS enrichment (R)
ACAGACAUGGGACUACAUCAUAAGAUGAUUAGAAUGUUGGACAGCGUAGUAUGCAGCCAGUGGUUAGUUAUUACAAAGAUCCCUUAGUUACUGUAUUGUUUGCUUUCCUU | 0.568
UUGUCCUCUGCUGUCUCCUCUGGUCCUGAGAUGAGCUGUGAGCCUAGGUGGCCAAGGCUUCCUGCAUUGCUUCCCUGUGAGUCCAAGGCCUUCCCCCACCACUGGGCAGA | 0.278
UAUGAAGAAAAACACAAAGUGUAUAAAUCUUGAGUAUAUAUUUACAUGUCUUUUUAAAAAGGGUCGUUACUAGAGAUUUACCCAUGGGGGAGACGCCCAGGGUAGCAUCC | 0.408
UAUGUCCCUGUCUGGGGGGCAGGAGGAAUCUGCCAAAGACCAACAGUCUUACUUUAUCUUACUAUACUUCACAAAGGUUCUAAAAUGUGAAGAGUUUACUUGGAUUGCAG | 0.387
UUUCUCCCCCCCGCCUGGAUCCUGCCUCGCGCGGGCCGUCCUGUUGCUGAGACUCGGGGUACCGUUCUGCUGACCCAGCUCCCUUUAGUCACGUUUGCUUGGCUCUGGUA | 0.504
GAGCUGAUGCUUCAGAAGUGCAUCGCGAUUCAGAGUGACCAGCCUAAGAGCACAAAUUUAGUUUGGGUGUUCCUCAUCACAUGUAUAUAUGGACUAUCCAUCGAACUUAA | 0.422
UGCUCACACUUUCAUAGCGCUUGCUACGUGACAAGUACCGCUGUAAAUAAAUGCCUCAUGAAAACCACUUGCUUGCUCUUUGUAAGGACCCCGUGAAAGAUGCGCUGGUU | 2.36
ACAUGGCAAAACCCCAUCUCUACUAAAAAUACAAAAAUGAGCUAGGCAUGGUGGCACACGCCUGUAAUCCCAGCUACACCUGAGGCUGAGGCAGGAGAAUUGCUUGAACC | 0.969
GGCAGUGUUAACAUUGUACAGUGUAUGCAUAGAGGAGUCUCCUCUAUUUGAAGAACAAUGCAAAAUGAGGCUUUCAUUGAAGGGAGAAAAGAGAAAAAAAGAAAAAAAAA | 4.6
GGAAGGUGCCAGGUGCACUUGGGGUUGGGGUUGGUGUGUUGGGUGUUGAAGUGGAAUCGUUUCAUCCCAGCCAUGGAGGCCACCAGCAGGAGUGUUCAUGGGGAUGUGGG | 0.774
GUCUUCCUGGUGAGUUCUACUCAUGGUCGUUCUCAGGAAAACUGUGUUCCCUUUGUGUGUACGUUUCUCACCCCUUAACCACUUCAGUGUCAAAAAAGUUCCCAUUGUGU | 0.998
CUUGUCCCUUAAUUAUUCACCAGACCCAGAAGUUGUACGCAUUUAAUGCUGUUUGUAACCAUGCAUCUGUUUUCAUUCUUUGCUGUACCUUUUGCUGCCCAUCCUGUUAC | 0.867

Set 2
Target: Histone acetyltransferase KAT6A, winged helix 1, GST fusion (KAT6A, Homo sapiens, UniProt Q92794, residues 1-85)
Technique: protein binding microarray
Molecule type: double-stranded DNA, one strand shown
Medium: in vitro
Tested at: not given
Notes: 8-mer, flanks averaged, mean of 2 arrays, mostly near background
Reference: not given
Reading: higher = stronger binding
Target sequence (chain): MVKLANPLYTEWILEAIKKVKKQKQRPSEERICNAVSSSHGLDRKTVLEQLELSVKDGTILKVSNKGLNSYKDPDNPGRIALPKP
Strand | E-score
ATAGGTCG | 0.0539
CGATAACA | -0.00366
ACAATACC | 0.025
CATGATGG | -0.278
AATCAGGT | -0.126
ATTATCTG | -0.187
CAAGTACG | 0.0286
AATTAGCT | -0.144
AACGAGCG | 0.142
ACTGTCCA | -0.136
CGATTTGC | -0.0269
ACGGAGCT | 0.176
CCGCGAGG | 0.365
GATCAACC | 0.0421
ACTGAAAC | -0.1
ACAAATAC | -0.0863
CGACCAAG | -0.0869
AAGCTCTA | -0.0824
GATCTGGA | -0.271
AAGGAACT | -0.166

Set 3
Target: Centromere-binding protein 1, full length, His-tagged (CBF1, Saccharomyces cerevisiae, UniProt P17106, residues 1-351)
Sequence of UniProt P17106 (whole entry, looked up): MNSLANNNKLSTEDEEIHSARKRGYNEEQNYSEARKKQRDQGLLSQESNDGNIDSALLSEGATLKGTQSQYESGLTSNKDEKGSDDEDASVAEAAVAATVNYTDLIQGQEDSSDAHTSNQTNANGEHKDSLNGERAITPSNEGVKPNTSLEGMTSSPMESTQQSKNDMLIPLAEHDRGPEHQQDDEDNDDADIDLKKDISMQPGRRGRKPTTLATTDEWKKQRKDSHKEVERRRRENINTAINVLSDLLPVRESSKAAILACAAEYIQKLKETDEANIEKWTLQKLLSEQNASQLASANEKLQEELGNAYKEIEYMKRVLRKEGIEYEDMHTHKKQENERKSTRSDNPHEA
Technique: competition protein-binding microarray
Molecule type: double-stranded DNA, one strand shown
Medium: in vitro
Tested at: 2 µM
Notes: whole 60-bp probe, lowest competitor level
With: Pho4 competitor, 0.05 µM
Reading: higher = stronger binding
All sequences stand within: … GTCTTGATTCGCTTGACGCTGCTG
Strand | fluorescence intensity [a.u.]
CATACCCAACCTTGTCACGCTACTTAAGATATTTGT | 292
AAATTACTAAGTTTTCACGTGGTGTACCCCGTATGA | 1040
CAATGTTTGTTTCCTCACGTGTGTTGGAAAAGGAAA | 1620
AAAGCGGTAATTTGATTGGTGGGTGCAGATATCTAT | 73.3
ACACTTCTGAGCGGCCACGTGTAGAGGGGTAAGCTA | 586
CATTCTGCCACTGACCACGTGGTAACGCCAACTACG | 2300
GAAAGGGTTTAGTACCACATGCTATGATGCCCACTG | 105
TCGGTCTTCTTGATGCTCGTGAACGCCATTTGGTCC | 93.2
GCTTGCCGCGAACCTCTCGTGCGATGCCAAAGTGGT | 63.4
CATCATGAAAAGGTCCACGTTGCTGTCGCTGGACGC | 101
CCCTCCCAGTTCTCGCGCGTGTGGAGAGTGGGTTCT | 63
AAAGCGGTAATTTGGGAAGTGGGTGCAGATATCTAT | 75.2
CAATCGTCCCGGTGCCACATGAACCAAAACATTTGC | 74.6
AAGTTTCGGAATACACTCGTGCTTTCAACCTAAGAC | 127
TTAGAGTAGGGAGAGAATGTGACGAAGCCCTTTGTG | 70.5
AACGGTGCCGGCCGTCACGCTAACGTTTCCACCAAG | 78

Set 4
Target: RING finger protein unkempt homolog, zinc fingers 1-6, GST-SBP tag (UNK, Homo sapiens, UniProt Q9C0B0, residues 30-357)
Technique: RNA Bind-n-Seq
Molecule type: RNA
Medium: in vitro
Tested at: not given
Notes: RNA with constant flanks, ends assumed
Reference: input RNA pool
Reading: higher = stronger binding
All sequences stand within: GGGAGUUCUACAGUCCGACGAUC … CAACAGAGGAUUGAGCAUCA
Construct (chain): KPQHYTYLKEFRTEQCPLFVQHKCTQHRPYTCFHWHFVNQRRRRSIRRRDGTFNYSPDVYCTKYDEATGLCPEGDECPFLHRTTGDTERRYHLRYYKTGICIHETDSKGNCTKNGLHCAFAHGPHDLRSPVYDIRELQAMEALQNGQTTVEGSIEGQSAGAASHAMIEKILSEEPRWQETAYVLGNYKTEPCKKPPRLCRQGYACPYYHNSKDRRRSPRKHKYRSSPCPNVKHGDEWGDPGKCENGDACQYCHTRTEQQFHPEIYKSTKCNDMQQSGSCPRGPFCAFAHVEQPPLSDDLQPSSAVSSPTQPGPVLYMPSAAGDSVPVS
Strand | bound/input enrichment
UGGACAGAAAAAAUAAUGAAACAAACUGAAGUGUUAUUGCAGCCAAAUCCAAAUGCCAGGACCGAAGAAUUUGUUUAUGAGAAACUGGAUAGAAAAGCUCCAAGUCGUAUAAACAACCCA | 0.496 ratio
AGAACAAACAAAGGGCUGCAACUACGGCAUGGCAAUGACCAACGCGUGUUCCGUUCCGAGUUUGUCUCAAACCAAGAAUUCACCGAAAGUGAGUUUAUGAAGUGGAAAGAAGCGAUGUUC | 0.0967 ratio
GCUGAAUUUGCUGAGUUAAAGACACAGAUAGAGAGACUGAGACUAGAUUACCAGCACGAAACCGAAAGUUUACAGAGUAAACAGGACUCUGAGCGGUCUGCUCAUGCUAAAGAGAUGGAG | 0.449 ratio
CAAAGCAUUGAGCGUUCUCAUCGGAUUGCCACAGAAACUGAUCAAAUUGGUACAGAAAUCACCGAAGAGUUGGGGGAGCAACGAGACCAGUUGGAACGUACUAAGAGCAGACUGGUAAAU | 0.265 ratio
AGUUCCAGCGACAGCGACUCAUCUUGUGGCUGGACUGUCAUCAAUCAUGAGGGUUCUGAUACCGAGAUCGUGAAUUCUGCCACAGCCAGUGACAACUGUGGACUGACUCUAGAAUGUUCC | 0.176 ratio
GUUGCCAUGUCGGGGAAGCUAGUCCCCGGCAGCCUGGAUGACUGCACAGCGGUGCCCUGGUACCGCAGAAAAGAGCAGUGAGCUGGAAGGUUAGAGACCGGGCCUCUUACCCUGGAACUC | 1.07 ratio
AAUGUCCUUAAAGCAAUUGAGCAGGCUGAUCUACUGCAGGAGGAAGCUGAAACCCCACGCCGUGUUCUUGAAGAAAUUGGACUGACAUAACUCUCCUCCCUUGUUGAUGACUUCUUGUGG | 0.254 ratio
AGCAUUUUCCCCUGUUACCUUUAUAUUACACAAUCUGUUCUAUGGUAACAAUACAGAGGAGCGAGCCCGUUUACUGCACCAGUGUUAAUAGGAAAUUUCAGUAUAUCAUGAACAAAUCGA | 0.583 ratio
GAUAUUGUGCUUGCCAUCCUUGAAUUACUAAAGUAUCAUCAGAGAGUCUUAUAUAUUGAUACCGAUAUUCAUCAUGGUGAUGGUGUUGAAGAAGCUUUUUAUACAACAGAUCGUGUAAUG | 0.23 ratio
GAGCAUAGCAAGACUCCUGAGGAGAGGAACCUCACUUCCAGCCCGGCAAUGAAUGGGGACCCCGCUAAACUGGCUUGCUCUGAAGCACCUACCGACGUUUCCAAGACCUGGGUCACCUCA | 0.118 ratio
AUGAAGCCAAAUAUUGAACCUCCUGAGAAUGUGGAGUGGAGUGGUGCUGAAGCCUCAAUGUUCCGAGUCCUCAUUGGCACUUACUAUGACAAUUUCUGUGCCAUUGCUAGGUUAAUUGGG | 0.518 ratio
